# Measurements of several laboratories.
# Numbered parts are unrelated; each lists some results of a single study. Positions count from the first letter of the parent shown.

# Study 1
# Target: CCNB3, cyclin fold, Cln2 fusion (human)
# Technique: yeast growth competition, sequencing
# Matrix: yeast
# Setting: weak parent motif
# Baseline: not given
# Reading: higher = stronger binding
# Starting sequence: PKMYT1 docking peptide (human); SFEPRNLLSLFED
Substitution,normalised enrichment score
L10K,-0.536
F11K,0.499
S1N,0.42
S9T,0.502
N6M,0.0166
L7I,0.414
P4W,1.28
F11Y,0.785
F11R,-0.0985
S9Y,0.685
E3F,0.264
N6S,0.633
L7H,0.382
E12P,0.395
F2W,0.319
F2Q,0.422
S9H,0.354
S9I,0.588
S1K,-0.103
D13N,0.862
L8K,0.736

# Study 2
# Target: RING finger protein unkempt homolog, zinc fingers 1-6, GST-SBP tag (UNK, Homo sapiens, UniProt Q9C0B0, residues 30-357)
# Technique: RNA Bind-n-Seq
# Form: RNA
# Matrix: in vitro
# Tested at: not given
# Setting: RNA with constant flanks, human-mouse chimeric sites, ends assumed
# Baseline: input RNA pool
# Reading: higher = stronger binding
# Target sequence (chain): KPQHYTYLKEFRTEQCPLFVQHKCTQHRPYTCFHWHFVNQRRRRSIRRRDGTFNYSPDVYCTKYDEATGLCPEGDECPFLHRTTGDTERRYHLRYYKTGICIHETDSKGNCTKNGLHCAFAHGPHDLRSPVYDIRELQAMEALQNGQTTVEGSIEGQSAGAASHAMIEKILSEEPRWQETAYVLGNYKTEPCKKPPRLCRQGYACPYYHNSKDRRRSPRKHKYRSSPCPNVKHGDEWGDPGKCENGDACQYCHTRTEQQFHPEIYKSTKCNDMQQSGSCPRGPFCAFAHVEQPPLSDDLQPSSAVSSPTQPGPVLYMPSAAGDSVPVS
Sequence,bound/input enrichment [ratio]
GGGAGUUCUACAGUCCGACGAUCUAAGUUAUUUUGUACAGUAAGUUAUUUUCUUAACAUUUUUAUAUUGCCAUGUUUAUUUUUUUUAGAUAAUUUGGUUCAUUAAGUACAUAGCUAAGGUAAUGAACAUCUUUUUCAGUAAUUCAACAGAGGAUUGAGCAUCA,2.37
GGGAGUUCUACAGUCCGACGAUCCUUAAUGUUAAUAUUUUUGAAUAAAUGAAGCUAAAAUGUCUGCUUUUGGUACUACAUGCAUUAGCGAAAGGUUAAGUUUUGUUUUCCACUGAAGUACUAUUUAACAUCUCAGAAAAAAACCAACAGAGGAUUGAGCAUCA,0.464
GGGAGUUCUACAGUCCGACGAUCGGCCUGGGACCGUCCUGGGCUAGUACAAAUAGCGGCAUGGAGGCUCAGAGAGGAAAGUUUGUUAGUGGAGGCAGUGGUAGAGGCCGUCAUGUACGGUCCUUUACUCGAUAGAUGUGUUCUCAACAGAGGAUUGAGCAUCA,0.738
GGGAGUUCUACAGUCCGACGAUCCAGCCUCAGAGCCCAGACUUCCUGGACAUUACCAACCCUAAAGCGGUAUUAGAAAAUGCACUUAGGAACUUCGCCUGUCUGACGACUGGAGAUGUGAUUGCUAUCAACUACAAUGAGAAGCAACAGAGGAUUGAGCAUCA,0.587
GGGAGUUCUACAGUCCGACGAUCAGUGUGCAGGAAUUCAUGACCUUUACAAGUCAACUGAUUGUGGAACGCUCGGGGAAAGGCAGCAGAGCUUCUGUCAAAGAACAAGAGUAUCUUUGCCACGUCUACGUCCGGAGCGACAGUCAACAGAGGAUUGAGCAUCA,0.114
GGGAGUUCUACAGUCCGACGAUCGGCCUGGGACCGUCCUGGCUAGUGCAAAAUAGCGGCAGUGGAGGCUCGAGAGGAAAGUUUGUUAGUGAGGCAGUGGUUAGAGGCCGUCAUGUACGGUCCUUUACUCGAUAGAUGUGUUCUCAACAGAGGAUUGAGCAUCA,0.92
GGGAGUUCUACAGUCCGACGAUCGAACCUGCUCUCUCUGAUGAAGAUGAGGAAGACAAUGAUGAUGUUGAACCCAUUUCUGAAUUUCGAUUUGUGCCUAGUGAUAAGUCAGCAUUGGAGGCGAUGUUCACAGCAAUGUGUGAGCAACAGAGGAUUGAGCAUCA,0.346
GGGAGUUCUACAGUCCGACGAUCGCGGCAGAAUCAUGGAGGACAUAAUGCAGCUCCCCAAGUCGCGCAUCAACGCCAGCAUGUUACCACAGUAUAUCGACAAGCCUGUCUGCUUCGUGGGGAAGCUGGAAAAGAUUCAUCCCACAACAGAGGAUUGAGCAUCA,0.102
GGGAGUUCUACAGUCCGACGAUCUGUGCAUAUGAUGCUUGAGAUGGUUUUUGCAAAAGCAGAAAUCGCUGCAAGGUAAUCACAAUAGAUACAAGCGGUAUUUUAAACCUUUGAAAUAAAUGGAUGUAACUGUACGUUGGUACACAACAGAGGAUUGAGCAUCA,0.259
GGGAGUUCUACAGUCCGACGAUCGUAGCUGGGACUACAGAAAUGCUGGUAGUGCUCCGGCGUGAGUCGUGACUUCUGAUGUCCCAGCAAAUGUUGGCAUUGUUGACUGCUGAGAAGAUACUUCUGAGGACCCACGUCUAAGGUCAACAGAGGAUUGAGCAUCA,0.0833
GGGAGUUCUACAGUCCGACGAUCUUACUUUUGACUCCCUGGGUUAAAUUCCUGUGGGAAUCAUACAGGCAGUGUUUGGACCUUCUUCGAAACAAUUCUAGAGUAGAGCGCCUUUACCAUGAUAUCGCCCAACAAGCUUUCAAACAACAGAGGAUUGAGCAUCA,0.19

# Study 3
# Target: ABI1, truncated, D143A, DHFR fusion (Arabidopsis thaliana)
# Technique: DHFR PCA, deep sequencing
# Matrix: yeast
# Setting: methotrexate growth selection, single substitutions
# With: (+)-ABA 58 µM
# Baseline: wild-type fitted maximum
# Reading: higher = stronger binding
# Starting sequence: PYL1, truncated, DHFR fusion (Arabidopsis thaliana); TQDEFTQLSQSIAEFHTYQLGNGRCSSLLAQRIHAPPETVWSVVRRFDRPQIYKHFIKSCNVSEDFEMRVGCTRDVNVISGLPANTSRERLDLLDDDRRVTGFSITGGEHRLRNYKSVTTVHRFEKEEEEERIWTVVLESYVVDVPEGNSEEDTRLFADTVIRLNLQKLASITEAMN
Substitution,relative binding score
A170N,38%
E131Q,97.5%
I105D,-10.1%
R74N,-2.99%
E125M,90.5%
E109Y,51.6%
V100Y,27.8%
I57P,-28.9%
T17Q,82.1%
V161M,47.7%
C60T,75.8%
R123C,88.5%
G107W,14.3%
D48N,60.7%
Q167P,6.12%
S80T,79.1%
L112A,1.18%
R88F,77.2%
R88V,84.3%

# Study 4
# Target: BIRC6 UBC core domain (UniProt Q9NR09)
# Technique: yeast two-hybrid
# Matrix: yeast
# Setting: mostly zero background
# Baseline: not given
# Reading: higher = stronger interaction
# B1: TRIM68 RING domain (UniProt Q6AZZ1); chain LVEAIVEEVACPICMTFLREPMSIDCGHSFCHSCLSGLWEIPGESQNWGYTCPLCRAPVQPRNLRP
# B2: RNF130 RING domain (UniProt Q86XS8); chain DKETDPDFDHCAVCIESYKQNDVVRILPCKHVFHKSCVDPWLSEHCTCPMCKLNILKALGIV
# B3: RNF32 RING domain (UniProt Q9H0A6); chain VQALRRETHECSICLAPLSAAGGQRVGAGRRSREMALLSCSHVFHHACLLALEEFSVGDRPPFHACPLCRSCYQKKILEC
# B4: TRIM74 RING domain (UniProt Q86UV6); chain SLLELEDWLQCPICLEVFKESLMLQCGHSYCKGCLVSLSYHLDTKVRCPMCWQVVDGSSSLP
# B5: RFPL3 RING domain (UniProt O75679); chain MAALFQEASSCPVCSDYLEKPMSLECGCTVCLKCINSLQKEPHGEDLLCCCCSMVSQRNKIRP
# B6: MARCHF2 RING domain (UniProt Q9P0N8); chain RLLSTVIRALDTPSDGPFCRICHEGANGECLLSPCGCTGTLGAVHKSCLEKWLSSSNTSYCELCHTEFAVEKRPRPLTEWL
# B7: TRIM34 RING domain (UniProt Q9BYJ4); chain ILLNVQEEVTCPICLELLTEPLSLDCGHSLCRACITVSNKEAVTSMGGKSSCPVCGISYSFEHLQA
# B8: UBE4B RING domain (UniProt O95155); chain KNARAEIDYSDAPDEFRDPLMDTLMTDPVRLPSGTIMDRSIILRHLLNSPTDPFNRQTLTESMLEPVPELKEQIQAWMREKQNSDH
# Construct (chain): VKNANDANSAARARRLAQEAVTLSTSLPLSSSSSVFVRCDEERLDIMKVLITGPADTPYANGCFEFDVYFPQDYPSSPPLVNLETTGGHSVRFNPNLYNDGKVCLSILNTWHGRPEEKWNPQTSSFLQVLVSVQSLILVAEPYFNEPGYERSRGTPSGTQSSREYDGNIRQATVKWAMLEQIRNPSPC
Sequence,lacZ reporter activity
B1 (TRIM68 RING domain),0
PLRRLQEEKLCKICMDRHIAVVFIPCGHLVTCKQCAEAVDRCPMCSAVIDFKQRVF (BIRC8 RING domain (UniProt Q96P09)),0
MEEMEEELKCPVCGSFYREPIILPCSHNLCQACARNILVQTPESESPQSHRAAGSGVSDY (TRIM9 RING domain (UniProt Q9C026)),0
B2 (RNF130 RING domain),0
B3 (RNF32 RING domain),0
B4 (TRIM74 RING domain),0
B5 (RFPL3 RING domain),0
VPADASPDSKCPICLDRFDNVSYLDRCLHKFCFRCVQEWSKNKAECPLCKQPFDSIFHSV (TOPORS RING domain (UniProt Q9NS56)),0
B6 (MARCHF2 RING domain),0
B7 (TRIM34 RING domain),0
B8 (UBE4B RING domain),0

# Some of these lines once more (study 1):
Substitution,normalised enrichment score
F11Y,0.785
N6M,0.0166
S9I,0.588
S9T,0.502
L10K,-0.536
F2W,0.319
